Assay results pooled from the literature.
Each line is one published result; not all experiments were run side by side. Several values in a cell are separate wells, animals, samples, runs or records. ± marks the error that the study gave.

Under “colony formation reduction”, `COc1ccc2c(N(C)c3ccc(/C(C)=N/OCCN)cc3)c3c(Cl)coc3nc2c1` is recorded as 99% (LNCaP C-81; clonogenic; 0.5 µM, 6 d).
For `COc1cc2c(cc1O)C(Cc1ccc(O)c(-c3c(O)c(OC)cc4c3C(Cc3ccc(O)cc3)N(C)CC4)c1)N(C)CC2` (centres unmarked), the inhibition was 3.1 ± 0.6% (3T3-L1; adipocyte lipid accumulation, Nile Red staining; 50 µM).
For `COc1ccc(Cc2ccnc3cc(OC)c(OC)cc23)cc1OC`, the inhibition was 0% (A549; mitochondrial oxygen consumption, Seahorse XF96; 10 µM).
With `C=CC(=O)N1CCC(COCC(=O)N2CCN(c3nc(-c4cnc(N)nc4C(F)F)nc(N4CCOC[C@@H]4C)n3)CC2)CC1` the IC50 was 0.0925 µM (SK-OV-3; FOXO1 translocation, kinase translocation reporter; 2 h).
`Cn1cc(Nc2nccc(-c3ccc4c(c3)CN(C3COC3)CC[C@H]4NC(=O)c3cn(C(C)(C)C)nn3)n2)cn1`: “pathway activation z-score” 3.16 (mouse splenic B cells; item: PEDF signalling; 30 mg/kg, IgD-activated in vivo; baseline: vehicle, direction not given).
For `O=C(NOC[C@H](O)CO)c1ccc(F)c(F)c1Nc1ccc(I)cc1F`, the viability was 44.6% (A549; 0.625 µM, 72 h).
For `Cl.Cl.NCCNS(=O)(=O)c1ccc(Cl)c2ccncc12`, “relative cell number” read 254% (SK-OV-3; ATP; 3D spheroid culture; 10 µM, 4 days, added: GA-017 10 µM; baseline: DMSO).
With `COc1cc2ncnc(Cc3ccc4cnn(C)c4c3)c2cc1OC` the inhibition was 24% (A549; mitochondrial oxygen consumption, Seahorse XF96; 10 µM).
Under “relative cell number”, `CCn1c(-c2nonc2N)nc2cncc(CNC3CCNCC3)c21` is recorded as 98.5% (SK-OV-3; ATP; 2D monolayer culture; 1 µM, 4 days; baseline: untreated).
`NC(N)=NN=C(C=Cc1ccc([N+](=O)[O-])o1)C=Cc1ccc([N+](=O)[O-])o1` has a fibulin-3 level of -47% (ARPE-19 HiBiT fibulin-3; HiBiT luminescence; 1.66 µM).
The beat rate of `N#CC[C@H](C1CCCC1)n1cc(-c2ncnc3[nH]ccc23)cn1` is reported as 102% (iCell Cardiomyocytes (hiPSC-derived); xCELLigence Cardio impedance; concentration not given, 2 h; baseline: control).
`CCN1CCN(Cc2ccc(Nc3ncc(F)c(-c4cc(F)c5nc(C)n(C(C)C)c5c4)n3)nc2)CC1` gave an inhibition of 65% (NLRP3 inflammasome (mouse); mouse BMDM; 10 µM).
Under “maximal ROS response”, `CC(C)(C)c1cc(/C=C2\SC(N)=NC2=O)cc(C(C)(C)C)c1O` is recorded as -65.6 ± 41.1% (HepaRG; ROS-Glo).
`COc1ccc2c(c1)NC(=O)CN2c1nc(C)nc2ccccc12`: “cells in G2/M phase” 83.8% (A549; flow cytometry; 0.003 µM, 24 h).
`Cn1cc(-c2ccc(-c3cncc(Cl)c3N3CCC4(CCNC4=O)CC3)cc2)cn1` — result for “log2 fold change”: -1.85 (COLO 205; gene expression, microarray, item: DLGAP5 mRNA; concentration not given, 2 h; baseline: untreated cells).
`Cc1ccc(NC(=O)c2ccc(CN3CCN(C)CC3)cc2)cc1Nc1nccc(-c2cccnc2)n1` has an ATP level of 94.7% (iCell Cardiomyocytes (hiPSC-derived); CellTiter-Glo; concentration not given, 24 h; baseline: control).
Under “mitochondrial membrane potential”, `COc1ccc(NC(=S)N/N=C/c2cccc3cc4ccccc4nc23)cc1` is recorded as 1.11 ± 1.28 (HeLa; TMRE flow cytometry; IC12.5, 48 h, unit not given, added: N-acetylcysteine; baseline: DMSO control).
The Emax of `Cc1cc(Nc2ncc(Cl)c(Nc3ccccc3S(=O)(=O)C(C)C)n2)c(OC(C)C)cc1C1CCNCC1` is reported as 78.6% (KARPAS-299 (NPM1-ALK); cell viability).
The beat amplitude of `CN1CC[C@H](c2c(O)cc(O)c3c(=O)cc(-c4ccccc4Cl)oc23)[C@H](O)C1` is reported as 98.8% (iCell Cardiomyocytes (hiPSC-derived); xCELLigence Cardio impedance; concentration not given, 2 h; baseline: control).
For `CCCCc1nc(Cl)c(CO)n1Cc1ccc(-c2ccccc2-c2nn[nH]n2)cc1`, “log2 fold change” read 4.1 (human PBMC; RNA-seq, item: CSF3 mRNA; 10 µg/mL, 24 h; baseline: untreated control).
For `CCn1cc(-c2cc(Cn3ccnc3)cc3c2CCN([C@H](c2cc(OC)ccn2)C2CC2)C3=O)c(C(F)(F)F)n1`, the EC50 was over 30 µM (Detroit 562; cell growth; 120 h).
With `Cc1ccc2nc(NCCN)c3ncc(C)n3c2c1` the ATP level was 99.1% (iCell Cardiomyocytes (hiPSC-derived); CellTiter-Glo; concentration not given, 24 h; baseline: control).
`CC1(C)COc2ccc(F)cc2CN2c3nc4c(cnn4cc3OC[C@H]2C(F)F)C(=O)N1` gave an Emax of 73.4% (KARPAS-299 (NPM1-ALK); cell viability).
The GI50 of `O=C(/C=C/C=C/C=C/C1CCCCC1)NC1=C[C@@](O)(/C=C/C=C/C=C/C(=O)NC2=C(O)CCC2=O)[C@@H]2O[C@@H]2C1=O` is reported as 17.8 µM (SNU-407; cell growth, CellTiter-Glo; 78 h).
`Clc1ccc(C2(c3ccc(-c4cn[nH]c4)cc3)CCNCC2)cc1` — result for “relative cell number”: 122% (SK-OV-3; ATP; 0.1 µM, 4 days, 3D U-bottom low-attachment; baseline: untreated).
The EC50 of `CCn1cc(-c2cc(Cn3ccoc3=N)cc3c2CCN([C@@H](C)c2cc(OC)ccn2)C3=O)c(C(F)(F)F)n1` is reported as 3.53 µM (Farage; cell growth; 120 h).
The IC50 of `C=CC(=O)N1CCC[C@@H](c2ccc(C(N)=O)c3[nH]ccc23)C1` is reported as over 1 µM (Ramos; calcium flux, FLIPR; 4 h preincubation).
`O=c1[nH]nc(OCCCc2ccc(Cl)cc2)c(NCc2cccnc2)c1Br`: “normalized enrichment score” -1.43 (HEK-293T; RNA-seq GSEA, item: HALLMARK_UV_RESPONSE_UP; concentration not given; direction not given).
The growth percent of `CCCCN1CCN(c2ccc3[nH]c(-c4ccc5[nH]c(-c6cc(OC)c(OC)c(OC)c6)nc5c4)nc3c2)CC1` is reported as 83.8% (SK-MEL-2; SRB; 10 µM, 48 h).
For `COC(=O)c1cc(C(C)=NNc2nc(-c3ccc4c(c3)OCCCO4)cs2)ccc1O`, “cells in S phase” read 58.2 ± 2.48% (T47D; flow cytometry; 20 µM, 72 h).
For `CC[C@H](C)[C@H](NC(=O)[C@H](CCC(N)=O)NC(=O)CNC(=O)[C@H](Cc1c[nH]cn1)NC(=O)[C@H](CCCCN)NC(=O)[C@H](Cc1c[nH]cn1)NC(=O)[C@H](Cc1c[nH]cn1)NC(=O)CN)C(=O)N[C@@H](CCSC)C(=O)N1CCC[C@H]1C(=O)N[C@@H](CCSC)C(=O)N[C@@H](CO)C(=O)NCC(=O)NCC(=O)NCC(=O)N[C@@H](CO)C(=O)N[C@@H](CCCCNC(=O)CCCC[C@@H]1SC[C@@H]2NC(=O)N[C@@H]21)C(=O)O`, binding read “binds” (U-251 (EphA2 high); confocal microscopy; 10 µM, 20 min, 37 °C, biotin-labelled peptide).
The protein level of `CC/C(=N\NC(=O)C(C)Nc1ccccc1)c1ccc(O)c(C)c1O` (centres unmarked) is reported as 0.54 ± 0.21 (SK-OV-3; Western blot, item: LATS; 10 µM, 6 h, 3D gellan gum culture, unit not given; baseline: β-actin).
`C[C@H]1CN(C2COC2)CCN1c1ccc(Nc2cc(-c3ccnc(N4CCn5c(cc6c5CC(C)(C)C6)C4=O)c3CO)cn(C)c2=O)nc1` has an IC50 of 0.00495 µM (Ramos; calcium flux, FLIPR; 1 h preincubation).
Under “G1 phase cells”, `CC(C)(c1ccc(O)cc1)c1ccc(O)cc1` is recorded as 74.3 ± 5.68% (HepG2 spheroids; Hoechst flow cytometry; 0.10 µM, 96 h).
`c1cnc2c(c1)ccc1cccnc12` — result for “IL-1β mRNA level”: “decreased” (differentiated THP-1; 25 µg/mL; baseline: untreated).
For `COc1cnc2cccc(N3CCc4c(cc(Cn5ccnc5C)cc4-c4cn(C)nc4C(F)(F)F)C3=O)c2c1`, the EC50 was over 30 µM (Detroit 562; cell growth; 120 h).
`Cc1ccc(F)c(NC(=O)Nc2ccc(-c3cccc4[nH]nc(N)c34)cc2)c1` gave an ATP level of 105% (iCell Cardiomyocytes (hiPSC-derived); CellTiter-Glo; concentration not given, 24 h; baseline: control).
`COc1cc(/C=C/C(=O)N2CCC=CC2=O)cc(OC)c1OC` gave a mRNA level of 79.9 ± 10.2% (MDA-MB-468; qRT-PCR, item: MT2A; 30 µM, 6 h; baseline: time zero).
With `Cc1cc2c(F)c(Oc3ncnn4cc(OC[C@@H](C)O)c(C)c34)ccc2[nH]1` the beat amplitude was 93.1% (iCell Cardiomyocytes (hiPSC-derived); xCELLigence Cardio impedance; concentration not given, 2 h; baseline: control).
With `Cn1c(Nc2nc3ccc(C(F)(F)F)cc3s2)nc2cc(C(=O)NCCOCCO)ccc21` the fold change was 1.84 (SH-SY5Y; RNA-seq, item: CREB5 mRNA; 5 µM, 5 h; baseline: untreated cells).
With `C[C@H]1Oc2cc(cnc2N)-c2c(nn(C)c2C#N)CN(C)C(=O)c2ccc(F)cc21` the Emax was 76.9% (KARPAS-299 (NPM1-ALK); cell viability).
`Cc1c[nH]c(=O)[nH]c1=O` — result for “z-scored log2 fold change”: 0.545 (binding, equilibrium dialysis LC-MS; 5 µM, thermostabilized A2AR-BRIL construct; baseline: no-protein control, direction not given).
For `CC(C)C[C@@H](C=O)NC(=O)[C@H](CC(C)C)NC(=O)[C@H](CC(C)C)NC(=O)OCc1ccccc1`, the fibulin-3 level was -55.5% (ARPE-19 HiBiT fibulin-3; HiBiT luminescence; 1.66 µM).
`OC1CCN(c2ccc(/C=N/NC(=S)Nc3ccccc3)cc2)CC1` gave a selectivity ratio of 5 (BEAS-2B and A549; MTT; baseline: IC50 BEAS-2B over IC50 A549).
`O=c1[nH]cnc2c1ncn2[C@@H]1O[C@H](CO)[C@@H](O)[C@H]1O`: “z-scored log2 fold change” 0.152 (binding, equilibrium dialysis LC-MS; 5 µM, thermostabilized A2AR-BRIL construct; baseline: no-protein control, direction not given).
With `CCCCCCNC(=O)n1cc(F)c(=O)[nH]c1=O` the ceramide level was 1 ± 0.19 pmol/mg protein (SW-403; LC-MS, item: Cer(d18:1/18:0); 10 µM).
`CS(=O)(=O)CCNCc1ccc(-c2ccc3ncnc(Nc4ccc(OCc5cccc(F)c5)c(Cl)c4)c3c2)o1` gave a cell index of 102% (iCell Cardiomyocytes (hiPSC-derived); cellular impedance; concentration not given, 24 h; baseline: control).
For `CC(C)NCC(O)c1ccc(O)c(O)c1` (centres unmarked), the sarcomere length was 1.71 µm (mouse ventricular cardiomyocytes; dose not given, 0.099 s).
`Cc1cc(Nc2ncc(Cl)c(Nc3ccccc3S(=O)(=O)C(C)C)n2)c(OC(C)C)cc1C1CCNCC1`: “log2 fold change” -2.06 (CLB-GE; phosphoproteomics LC-MS/MS, item: ATR phosphorylation; 200 nM, 60 min; baseline: untreated).
The toxicity of `COc1ccc(-n2nc(C(C)=O)s/c2=N\N=C(/C)c2ccc(NC(=O)c3ccc(C)cc3)cc2)cc1` is reported as 46.2% (HepG2; 0.156 µM).
The viability of `Cc1cccc(-c2[nH]c(CNc3ccccc3F)nc2-c2ccc3ncnn3c2)n1` is reported as 18% and 16% and 30% (MM1.S pomalidomide-resistant; XTT; 3 µM).
For `CCOc1cc2ncc(C#N)c(Nc3ccc(OCc4ccccn4)c(Cl)c3)c2cc1NC(=O)/C=C/CN(C)C`, the cell index was 98.5% (iCell Cardiomyocytes (hiPSC-derived); cellular impedance; concentration not given, 24 h; baseline: control).
`C=CC(=O)N1CCC([C@@H]2CCNc3c(C(N)=O)c(-c4ccc(Oc5ccccc5)cc4)nn32)CC1` has a maximal inhibition of at most 90% (Ramos; calcium flux, FLIPR).
With `CCCN1CCN(c2ccc3[nH]c(-c4ccc5[nH]c(-c6ccc(OCC)c(OCC)c6)nc5c4)nc3c2)CC1` the growth percent was -54.8% (KM12; SRB; 10 µM, 48 h).
`C=CC(=O)N1CCC[C@@H](n2nc(-c3ccc(Oc4ccccc4)cc3)c3c(N)ncnc32)C1` gave a maximum inhibition of 84.4% (Ramos; calcium flux, FLIPR; 2 h preincubation).
`COc1ccc2c(c1OC)CN1CCc3cc4c(cc3C1=C2)OCO4` has a PGD2 level of 20 pg/mL (KU812; culture supernatant; 100 µM, added: A23187).

Some of these lines once more:
`c1cnc2c(c1)ccc1cccnc12` — result for “IL-1β mRNA level”: “decreased” (differentiated THP-1; 25 µg/mL; baseline: untreated).
For `COc1cnc2cccc(N3CCc4c(cc(Cn5ccnc5C)cc4-c4cn(C)nc4C(F)(F)F)C3=O)c2c1`, the EC50 was over 30 µM (Detroit 562; cell growth; 120 h).
`Cc1ccc(F)c(NC(=O)Nc2ccc(-c3cccc4[nH]nc(N)c34)cc2)c1` gave an ATP level of 105% (iCell Cardiomyocytes (hiPSC-derived); CellTiter-Glo; concentration not given, 24 h; baseline: control).
